{"data": "Assay results pooled from the literature", "cell line": "PC-3", "note": "Protocols differ between the studies behind these lines. ± marks the error that the study gave."}
{"Compound": "[BH3-][P+]1(c2ccccc2)CCC(=O)CC1", "read-out": "cell growth or viability", "technique": "MTT", "time": "72 h", "IC50": "> 100 µM"}
{"Compound": "CNC[C@H](O)c1cccc(OCCOCC#Cc2cccc(Cn3c(-c4ccccc4)c(-c4ccccc4)c4c(=N)n([C@H]5CC[C@H](O)CC5)cnc43)c2)c1", "read-out": "cell growth or viability", "technique": "CCK-8", "IC50": "2.61 µM"}
{"Compound": "CCc1c(C)c2ccc(OC(C)C)c(C)c2oc1=O", "read-out": "cell growth or viability", "technique": "MTT", "IC50": "140 µM"}
{"Compound": "C[n+]1c(/C=C/c2ccc(N(c3ccccc3)c3ccccc3)cc2)cc(/C=C2\\Sc3ccccc3N2CCCN2CCCC2)c2ccccc21", "read-out": "cell growth or viability", "technique": "MTT", "time": "36 h", "IC50": "6.41 µM"}
{"Compound": "CC(C)c1ccc(N(C)c2ccc3c(c2)OCC[C@H]3CNc2cnccc2C(=O)O)cc1", "read-out": "cell growth or viability", "technique": "ATP luminescence", "time": "7 days", "IC50": "0.0145 µM"}
{"Compound": "C#CC[C@@]1(O)C[C@@H](C)N2CCc3cc(OCc4cc(C)cc(C)c4)c(OCc4cc(C)cc(C)c4)cc3[C@H]2C1", "read-out": "cell growth or viability", "technique": "MTT", "IC50": "0.517 µM"}
{"Compound": "CCCCCCC(=O)[O][Pt]([NH2])([NH2])([Cl])([Cl])[O]C(=O)CCC(C)C1CCC2C3CCC4CC(O)CCC4(C)C3CCC12C (centres unmarked)", "read-out": "cell growth or viability", "technique": "MTT", "IC50": "0.8 µM"}
{"Compound": "CNC[C@H](O)c1cccc(OCCOCCOCC#Cc2cccc(Cn3c(-c4ccccc4)c(-c4ccccc4)c4c(=N)n([C@H]5CC[C@H](O)CC5)cnc43)c2)c1", "read-out": "cell growth or viability", "technique": "CCK-8", "IC50": "2.98 µM"}
{"Compound": "O=C1CCP(=O)(c2ccccc2)CC1", "read-out": "cell growth or viability", "technique": "MTT", "time": "72 h", "IC50": "> 100 µM"}
{"Compound": "OC[C@H]1O[C@@H](Nc2cc3cccnc3c3ncccc23)[C@H](O)[C@@H](O)[C@@H]1O", "read-out": "cell growth or viability", "technique": "MTT", "time": "48 h", "notes": "dark", "IC50": "35.1 µM"}
{"Compound": "Cc1nc(Nc2ccc3c(c2)/C(=C/c2ccccc2Cl)C(=O)N3C)c2ccccc2n1", "read-out": "cell growth or viability", "technique": "MTT", "IC50": "27.6 µM"}
{"Compound": "[BH3-][P+]1(c2ccccc2)CCCCC1", "read-out": "cell growth or viability", "technique": "MTT", "time": "72 h", "IC50": "37 µM"}
{"Compound": "COc1ccccc1/C=C1\\C(=O)N(C)c2ccc(Nc3nc(C)nc4ccccc34)cc21", "read-out": "cell growth or viability", "technique": "MTT", "IC50": "30.4 µM"}
{"Compound": "O=[P@]1(c2ccccc2)CC[C@H](O)CC1", "read-out": "cell growth or viability", "technique": "MTT", "time": "72 h", "IC50": "88.2 µM"}
{"Compound": "Cc1nc(Nc2ccc3c(c2)/C(=C/c2c[nH]c4ccccc24)C(=O)N3)c2ccccc2n1", "read-out": "cell growth or viability", "technique": "MTT", "IC50": "19.1 µM"}
{"Compound": "O=C1c2ccc3c4ccc5c6c(ccc(c7ccc(c2c37)C(=O)N1CCN1CCCCC1)c64)C(=O)N(CCN1CCCCC1)C5=O", "read-out": "cell growth or viability", "technique": "SRB", "time": "72 h", "IC50": "91.5 µM"}
{"Compound": "Nc1cc2cccnc2c2ncccc12.[Cl-].[Cl-].[Ru+2].c1cnc2c(c1)ccc1cccnc12.c1cnc2c(c1)ccc1cccnc12", "read-out": "cell viability", "technique": "MTT", "time": "1 h preincubation, then 48 h", "added": "blue light", "IC50": "58.1 ± 1.07 µM"}
{"Compound": "Cc1cc(C)cc(COc2cc3c(cc2OCc2cc(C)cc(C)c2)[C@@H]2C[C@](O)(Cc4cn(Cc5ccc(F)cc5)nn4)C[C@H](C)N2CC3)c1 (single isomer, unassigned)", "read-out": "cell growth or viability", "technique": "MTT", "IC50": "0.095 µM"}
{"Compound": "Cc1nc(N(C)c2ccc3c(c2)/C(=C/c2cn(C)c4ccccc24)C(=O)N3C)c2ccccc2n1", "read-out": "cell growth or viability", "technique": "MTT", "IC50": "31.6 µM"}
{"Compound": "[BH3-][P@+]1(c2ccccc2)CC[C@@H](O)CC1", "read-out": "cell growth or viability", "technique": "MTT", "time": "72 h", "IC50": "> 100 µM"}
{"Compound": "O=C(O)C(Cc1c[nH]cn1)N1C(=O)c2ccc3c4ccc5c6c(ccc(c7ccc(c2c37)C1=O)c64)C(=O)N(C(Cc1c[nH]cn1)C(=O)O)C5=O (centres unmarked)", "read-out": "cell growth or viability", "technique": "SRB", "time": "72 h", "IC50": "> 100 µM"}
{"Compound": "C[C@@H]1O[C@H](Nc2cc3cccnc3c3ncccc23)[C@H](O)[C@H](O)[C@H]1O", "read-out": "cell growth or viability", "technique": "MTT", "time": "48 h", "notes": "dark", "IC50": "7.8 µM"}
{"Compound": "Cc1nc(Nc2ccc3c(c2)/C(=C/c2cn(C)c4ccccc24)C(=O)N3C)c2ccccc2n1", "read-out": "cell growth or viability", "technique": "MTT", "IC50": "9.41 µM"}
{"note": "Some of these lines once more:"}
{"Compound": "O=[P@]1(c2ccccc2)CC[C@H](O)CC1", "read-out": "cell growth or viability", "technique": "MTT", "time": "72 h", "IC50": "88.2 µM"}
{"Compound": "COc1ccccc1/C=C1\\C(=O)N(C)c2ccc(Nc3nc(C)nc4ccccc34)cc21", "read-out": "cell growth or viability", "technique": "MTT", "IC50": "30.4 µM"}
{"Compound": "C[n+]1c(/C=C/c2ccc(N(c3ccccc3)c3ccccc3)cc2)cc(/C=C2\\Sc3ccccc3N2CCCN2CCCC2)c2ccccc21", "read-out": "cell growth or viability", "technique": "MTT", "time": "36 h", "IC50": "6.41 µM"}
